{"data": "Published values collected from several papers", "note": "Protocols differ between the studies behind these lines. Several values in a cell are separate wells, animals, samples, runs or records. ± marks the error that the study gave."}
{"Compound": "CC(C)Nc1ccnc(Nc2cccc(-c3cccnc3)c2)n1", "assay": "refers to: potassium", "system": "mouse, blood", "conditions": "intraperitoneal, 10 mg/kg", "quantity": "blood chemistry", "result": "7.32 mmol/L"}
{"Compound": "CN(C)c1cccc2c(S(=O)(=O)N3CCN(c4ccccc4)CC3)cccc12", "system": "toluene", "conditions": "20 °C", "quantity": "Stokes shift", "result": "162 nm"}
{"Compound": "Oc1ccc(CSCc2ccc(O)cc2)cc1", "system": "ICR mice male", "conditions": "oral, 1500 mg/kg, day 8, acute toxicity", "quantity": "body weight", "result": "34.7 ± 3.67 g"}
{"Compound": "Cn1nc(NS(C)(=O)=O)c2c(Cl)ccc(-n3c([C@H](Cc4cc(F)cc(F)c4)NC(=O)Cn4nc(C(F)F)c5c4C(F)(F)[C@@H]4C[C@H]54)nc4nc(OCCC(F)(F)F)ccc4c3=O)c21", "assay": "refers to: blood triglycerides increased", "system": "human", "conditions": "1875 mg, powder in bottle", "quantity": "drug-related adverse events", "result": "0%"}
{"Compound": "CO[C@H]1C[C@@H]2CC[C@@H](C)[C@@](O)(O2)C(=O)C(=O)N2CCCC[C@H]2C(=O)O[C@H]([C@H](C)C[C@@H]2CC[C@@H](OC(=O)NCCOCCOCCOCCOCCOCCOCCOCCOCCC(=O)N3CCc4cc(Cn5nc(-c6ccc7oc(N)nc7c6)c6c(N)ncnc65)ccc4C3)[C@H](OC)C2)C[C@@H](O)[C@H](C)/C=C(\\C)[C@@H](O)[C@@H](OC)C(=O)[C@H](C)C[C@H](C)/C=C/C=C/C=C/1C", "system": "patients with advanced solid tumours", "conditions": "intravenous, 10 mg weekly, any grade", "quantity": "AE leading to discontinuation", "result": "0%"}
{"Compound": "COc1cccc(Oc2ccccc2NC(=O)CNC(=O)c2cccc3ccccc23)c1", "system": "esterase-deficient SCID mice, male", "conditions": "oral, 40 mg/kg/day, 14 days, toxicity study", "quantity": "serum creatinine", "result": "0.1 mg/dL and 0.2 mg/dL"}
{"Compound": "COc1cc2c(Oc3ccc4[nH]c(C)cc4c3F)ccnc2cc1OCC1(N)CC1", "system": "paediatric recurrent refractory sarcoma", "conditions": "12 mg", "quantity": "grade 1 or 2 ALP elevation", "result": "45.5%"}
{"Compound": "C[C@]1(CO)Cc2ncn(-c3ccc(C#N)c(Cl)c3)c2C(=O)O1", "system": "healthy European subjects", "conditions": "dose not given, single dose, all doses", "quantity": "drug-related orthostatic hypotension", "result": "2.1%"}
{"Compound": "O=S(=O)(Nc1ccccc1)c1ccc(NC(=S)Nc2ccccc2)cc1", "system": "mouse, male, blood", "conditions": "oral, 5 mg/kg daily, 14 days", "quantity": "mean corpuscular volume", "result": "47.8 fL"}
{"Compound": "C=CC(=O)Nc1cc(Nc2nccc(Nc3cc(Cl)c(F)cc3C(C)(C)O)n2)c(OC)cc1N1CC[C@@H](N(C)C)C1", "system": "human patients", "conditions": "oral, 50 mg, treatment-emergent adverse events", "quantity": "patients with diarrhoea", "result": "16.7%"}
{"Compound": "COc1ncnn2ccc(-c3cnc4nc(C)n(Cc5nnc([C@@H](C)F)o5)c4c3)c12", "system": "human", "conditions": "oral, dose not given, grade 3", "quantity": "patients with increased blood creatinine", "result": "0%"}
{"Compound": "O=C1Nc2cc3[nH]nc(-c4ccncc4)c3cc2CN1Cc1ccccc1", "assay": "CTCAE v4.03", "system": "human, relapsed or refractory advanced solid tumours", "conditions": "intravenous, 3.6 mg/kg, pooled schedules", "quantity": "patients with nausea", "result": "67%"}
{"Compound": "C[C@@H]1OC(=O)NN=C1c1ccc(-c2ccc(F)cc2)c(C(F)(F)F)c1", "assay": "phase I trial, refers to: Dyspnoea all grades", "system": "human patients", "conditions": "20 mg loading then 1 mg daily", "quantity": "patients with adverse event", "result": "50%"}
{"Compound": "COc1ccc2nc3cc(Cl)ccc3c(Nc3cc(CN4CCCC4)c(O)c(CN4CCCC4)c3)c2n1", "system": "mouse, blood", "conditions": "intraperitoneal, 57 mg/kg", "quantity": "platelet count", "result": "92.5 10⁹/L"}
{"Compound": "CCc1ccc(CC/C=C/c2ccc3c(c2)C(=O)CC3)cc1", "system": "Sprague-Dawley rat, male, blood", "conditions": "oral, 30 mg/kg/day, 14 days", "quantity": "MCV", "result": "64.8 fL"}
{"Compound": "C[C@H]1COCCN1c1nc(NCc2cccnc2C(F)(F)F)c2cccnc2n1", "system": "SCID BALB/c mice", "conditions": "oral, 90 mg/kg", "quantity": "AUC(0-24 h)", "result": "132 µg·h/mL"}
{"Compound": "NC(=O)[C@H]1CCN(c2ncnc(N)c2F)C[C@@H]1N1CCC[C@@H](Nc2cc(Cl)cc(C(F)(F)F)c2)C1=O", "system": "B-cell malignancy patients", "conditions": "oral, 246 mg twice daily, dose", "quantity": "grade ≥3 leukopenia", "result": "0%"}
{"Compound": "Cc1cccc(Cn2nc(C3CC3)c3c(NC(=O)c4cnc5cc(OCCN6CCN(C)CC6)ccn45)cccc32)n1", "assay": "CTCAE v4.03, refers to: all adverse events", "system": "platinum-resistant ovarian cancer patients", "conditions": "oral, dose not given, added: pembrolizumab IV every 3 weeks", "quantity": "all-cause adverse events", "result": "90.9%"}
{"Compound": "CC(C)C[C@H](NC(=O)[C@H](CCCCN)NC(=O)OCC1c2ccccc2-c2ccccc21)C(=O)N[C@H](C(=O)N[C@@H](Cc1ccccc1)C(=O)N[C@@H](Cc1ccccc1)C(=O)N[C@@H](CCCCN)C(=O)NCC(=O)N[C@@H](Cc1ccccc1)C(=O)N[C@@H](C)C(=O)N[C@@H](Cc1c[nH]c2ccccc12)C(=O)N[C@@H](CC(N)=O)C(=O)N[C@H](C(=O)N[C@H]1CSSC[C@@H](C(=O)N[C@@H](Cc2c[nH]cn2)C(=O)N[C@@H](CCCNC(=N)N)C(=O)N[C@@H](CCCNC(=N)N)C(=O)N[C@@H](C)C(=O)N[C@@H](CC(N)=O)C(N)=O)NC(=O)[C@H](C(C)C)NC(=O)[C@H](CCCNC(=N)N)NC(=O)[C@H](C(C)C)NC(=O)CNC(=O)[C@H](CC(N)=O)NC(=O)[C@H](CCCNC(=N)N)NC(=O)[C@H](Cc2ccc(O)cc2)NC(=O)[C@H](C(C)C)NC1=O)C(C)C)C(C)C", "system": "ICR mice, serum", "conditions": "intraperitoneal, 5 mg/kg, day 5", "quantity": "phosphorus", "result": "3.37 ± 0.1 mmol/L"}
{"Compound": "Clc1ccc(-c2cc(Cl)c(Cl)cc2Cl)cc1Cl", "system": "whole cow milk", "conditions": "200 nM nominal", "quantity": "dose fraction in milk fat", "result": "91%"}
{"Compound": "COc1cc(Nc2ncc(F)c(Nc3ccc4c(n3)NC(=O)C(C)(C)O4)n2)cc(OC)c1OC", "system": "kinase assay buffer", "conditions": "24 h, 1% DMSO", "quantity": "solubility", "result": "121 µM"}
{"Compound": "O=C(O)CCCOc1ccc(F)cc1-c1cc(-c2ccccc2C(F)(F)F)n(-c2ccccc2)n1", "system": "Crl:CD(SD) rats, female, blood", "conditions": "iv, 25 µg/kg, 14 days", "quantity": "haemoglobin", "result": "14.9 g/dL"}
{"Compound": "CC[C@H](C)[C@H](NC(=O)[C@H](Cc1ccccc1)NC(=O)[C@H](CCC(=O)O)NC(=O)[C@H](CCCNC(=N)N)NC(=O)[C@H](C)NC(=O)[C@H](C)NC(=O)[C@H](CCC(N)=O)NC(=O)[C@H](CCC(=O)O)NC(=O)[C@H](CCC(=O)O)NC(=O)[C@H](CC(C)C)NC(=O)[C@H](Cc1ccc(O)cc1)NC(=O)[C@H](CO)NC(=O)[C@H](CO)NC(=O)[C@@H](NC(=O)[C@H](CC(=O)O)NC(=O)[C@H](CO)NC(=O)[C@@H](NC(=O)[C@H](Cc1ccccc1)NC(=O)[C@@H](NC(=O)CNC(=O)[C@H](CCC(=O)O)NC(=O)[C@H](C)NC(=O)CCc1cnc[nH]1)[C@@H](C)O)[C@@H](C)O)C(C)C)C(=O)N[C@@H](C)C(=O)N[C@@H](Cc1c[nH]c2ccccc12)C(=O)N[C@@H](CC(C)C)C(=O)N[C@H](C(=O)N[C@@H](CCCNC(=N)N)C(=O)NCC(=O)N[C@@H](CCCNC(=N)N)C(=O)N[C@@H](CCCCNC(=O)COCCOCCNC(=O)COCCOCCNC(=O)CC[C@H](NC(=O)CCCCCCCCCCCCCCCCC(=O)O)C(=O)O)C(=O)NCC(=O)NCC(=O)N[C@@H](CO)C(=O)N[C@@H](CCCCNC(=O)[C@H](CCCCNC(=O)[C@H](CCCCNc1c(NCCCCCN(O)C(=O)CCC(=O)NCCCCCN(O)C(=O)CCC(=O)NCCCCCN(O)C(C)=O)c(=O)c1=O)Nc1c(NCCCCCN(O)C(=O)CCC(=O)NCCCCCN(O)C(=O)CCC(=O)NCCCCCN(O)C(C)=O)c(=O)c1=O)NC(=O)[C@H](CCCCNc1c(NCCCCCN(O)C(=O)CCC(=O)NCCCCCN(O)C(=O)CCC(=O)NCCCCCN(O)C(C)=O)c(=O)c1=O)Nc1c(NCCCCCN(O)C(=O)CCC(=O)NCCCCCN(O)C(=O)CCC(=O)NCCCCCN(O)C(C)=O)c(=O)c1=O)C(=O)O)C(C)C [zirconium-89 labelled]", "assay": "ex vivo gamma counting", "system": "male Sprague-Dawley rats, liver", "conditions": "intravenous, 1 nmol, 24 h", "quantity": "tissue uptake", "result": "3.67 %ID/g"}
{"Compound": "CCCCCCCCCCC[C@H](OC1OC[C@H](O)[C@@H](O)[C@@H]1O)[C@H](O)[C@H](O)C[C@@H]1CC(=O)N[C@H](CO)C(=O)N[C@H]([C@H](O)c2ccc(O)cc2)C(=O)N[C@H](CCN)C(=O)NCC(=O)N[C@@H](CC(N)=O)C(=O)N[C@@H](CO)C(=O)N[C@@H]([C@H](O)C(N)=O)C(=O)N1 (some centres unmarked)", "assay": "LC-MS/MS", "system": "rabbit plasma", "conditions": "800 ng/mL, 6 freeze-thaw cycles", "scale": "baseline: nominal concentration", "quantity": "freeze-thaw stability, deviation", "result": "-3.56%"}
{"Compound": "C=CC(=O)N1CC[C@H](n2nc(C#Cc3cc(OC)cc(OC)c3)c3c(N)ncnc32)C1", "system": "patients with advanced solid tumours", "conditions": "oral, dose not given, Dysgeusia, any grade, QD, added: phosphate-binding therapy", "quantity": "adverse drug reaction incidence", "result": "15%"}
{"Compound": "CC(C)(O)c1cc(Nc2cc(Oc3cn(C4CC4)nc3C3CCOCC3)ccn2)ccn1", "assay": "Headache", "system": "advanced cancer patients, dose escalation", "conditions": "oral, dose not given, 3 weeks on/1 off, all causality grade ≥3", "quantity": "treatment-emergent adverse events", "result": "9%"}
{"note": "Repeated from above:"}
{"Compound": "COc1cc2c(Oc3ccc4[nH]c(C)cc4c3F)ccnc2cc1OCC1(N)CC1", "system": "paediatric recurrent refractory sarcoma", "conditions": "12 mg", "quantity": "grade 1 or 2 ALP elevation", "result": "45.5%"}
{"Compound": "O=C(O)CCCOc1ccc(F)cc1-c1cc(-c2ccccc2C(F)(F)F)n(-c2ccccc2)n1", "system": "Crl:CD(SD) rats, female, blood", "conditions": "iv, 25 µg/kg, 14 days", "quantity": "haemoglobin", "result": "14.9 g/dL"}
{"Compound": "C=CC(=O)Nc1cc(Nc2nccc(Nc3cc(Cl)c(F)cc3C(C)(C)O)n2)c(OC)cc1N1CC[C@@H](N(C)C)C1", "system": "human patients", "conditions": "oral, 50 mg, treatment-emergent adverse events", "quantity": "patients with diarrhoea", "result": "16.7%"}
